# Published values pooled from the literature.
# Compare with care: the assays were run in different laboratories. Several values in a cell are separate wells, animals, samples, runs or records. ± gives the spread as reported.
# Organism: Plasmodium falciparum
SMILES,assay,system,conditions,how to read,measurement,value
C1=CC(c2ccc[nH]2)=NC1=CNC12CC3CC(CC(C3)C1)C2,,"HepG2, D6",,reference: HepG2 IC50 over D6 IC50,selectivity index,205
COc1ccc2c(c1)[n+]([O-])c(C#N)c(-c1ccco1)[n+]2[O-],,K1 chloroquine-resistant,,reference: K1 IC50 over 3D7 IC50,resistance index,0.44
CC1=N[C@H](C)Cc2c(-c3ccc(C)cc3)ccc(O)c21,"parasite growth, SYBR Green",W2,"96 h, drug-resistant strain, blood stage",,IC50,962 nM
COC1=CC(c2ccc[nH]2)=NC1=CNC1CCC1,parasite growth,"7G8, chloroquine-resistant",,,IC50,156 nM
N#Cc1ccc(C2Sc3ccccc3NC3=C2C(=O)c2ccccc23)cc1 (racemic),"growth, [3H]hypoxanthine incorporation",Dd2,,,EC50,270 nM
CN1CCCCC1C(=O)NC(Cc1ccc(-c2ccccc2)cc1)B(O)O (centres unmarked),"parasite growth, flow cytometry",3D7,72 h,,LD50,9 nM
C1=CC(c2ccc[nH]2)=NC1=CNC1CCCCCCC1,parasite growth,"Dd2, chloroquine-resistant",,,IC50,> 2500 nM
OCCCCCCCCCCOCCCc1cccnc1,anti-HRPII ELISA,W2 chloroquine-resistant,72 h,,IC50,14700 ± 200 nM
Cc1ccc(C(C)C)cc1.[Cl][Ru+].[O-]c1ccccc1C=NCCNc1ccnc2cc(Cl)ccc12,"parasite growth, pLDH","Dd2, chloroquine-resistant",,reference: IC50 Dd2 over IC50 D10,resistance index,18.6 and 18
CC1=CC(=CNC2CCCCCCC2)N=C1c1ccc[nH]1,parasite growth,"7G8, chloroquine-resistant",,,IC50,1780 nM
N#Cc1c(-c2ccco2)[n+]([O-])c2ccc(F)cc2[n+]1[O-],,K1 chloroquine-resistant,,reference: K1 IC50 over 3D7 IC50,resistance index,0.76
O=c1[nH]c(=O)c2cccc(O)c2o1,,"K1, multidrug-resistant",up to 10 µg/mL,,antiplasmodial activity,inactive
CCC1=CC(c2ccc[nH]2)=NC1=CNC12CC3CC(CC(C3)C1)C2,,"HepG2, D6",,reference: HepG2 IC50 over D6 IC50,selectivity index,2440
O=C1C2=C(Nc3ccccc3SC2c2ccsc2)c2ccccc21 (racemic),,Dd2 expressing yeast DHOD,together with: 0.5 nM proguanil,reference: transgenic over parental Dd2,fold resistance,0.96
COc1cc2c3c4c1Oc1cc5c(cc1O4)[C@H](Cc1ccc(OCCCN(C)C)c(c1)Oc1ccc(cc1)C[C@@H]3N(C)CC2)N(C)CC5,,"NF54, early ring stage","10 x IC50, 6 h, 0-6 h post-invasion, read at 72 h post-invasion",,parasite survival,< 5%
CC[C@H](C)[C@H](NC(=O)[C@@H](NC(=O)[C@H](Cc1ccc(O)cc1)NC(=O)[C@H](CCCCN)NC(=O)[C@H](CCCCN)NC(=O)[C@H](CC(C)C)NC(=O)[C@H](CC(=O)O)NC(=O)[C@H](Cc1ccc(O)cc1)NC(=O)[C@H](CCC(N)=O)NC(=O)[C@H](CCCCN)NC(=O)[C@@H](NC(=O)[C@H](Cc1ccccc1)NC(=O)[C@H](CCCCN)NC(=O)[C@H](CCCCN)NC(=O)[C@H](Cc1c[nH]c2ccccc12)NC(=O)[C@H](CCCCN)NC(=O)[C@H](CCSC)NC(=O)[C@H](CCCNC(=N)N)NC(=O)[C@H](CCCNC(=N)N)NC(=O)[C@H](CC(N)=O)NC(=O)[C@H](CCC(N)=O)NC(=O)[C@H](Cc1ccccc1)NC(=O)[C@H](Cc1c[nH]c2ccccc12)NC(=O)[C@@H](NC(=O)[C@H](CCCCN)NC(=O)[C@@H](NC(=O)[C@H](CCC(N)=O)NC(=O)[C@@H](N)CCCNC(=N)N)[C@@H](C)CC)[C@@H](C)CC)[C@@H](C)CC)[C@@H](C)CC)C(=O)O,,3D7,"50 µM, 24 h, early trophozoite stage, new ring stage",reference: solvent control,growth inhibition,~50%
CCC1=CC(=CNC2CCCCCCC2)N=C1c1ccc[nH]1,parasite growth,"7G8, chloroquine-resistant",,,IC50,1330 nM
O=C1C2=C(Nc3ccccc3SC2c2ccc(O)c(O)c2)c2ccccc21 (racemic),"growth, [3H]hypoxanthine incorporation",Dd2,,,EC50,> 5000 nM
CC[C@H](C)[C@H](NC(=O)[C@H](Cc1ccccc1)NC(=O)[C@H](CC(C)C)NC(=O)[C@]1(C)CCCC=CCCC[C@](C)(NC(=O)[C@H](CC(C)C)NC(=O)[C@H](CCCCN)NC(=O)[C@H](CCC(N)=O)NC(=O)[C@H](CO)NC(=O)CNC(=O)CCNC(=O)c2ccc3c(c2)C(=O)OC32c3ccc(O)cc3Oc3cc(O)ccc32)C(=O)N[C@@H](CCC(N)=O)C(=O)N[C@@H](C)C(=O)N[C@@H](C)C(=O)N1)C(=O)NCC(=O)N[C@@H](CO)C(=O)N[C@@H](CCCCN)C(=O)N[C@@H](CC(C)C)C(=O)N[C@H](C(=O)N[C@H](C(N)=O)[C@@H](C)O)[C@@H](C)O,,CS2,"15 µM, 24 h, late-stage iRBC",,parasitemia reduction,~50%
Clc1ccc(C2=CC(c3ccc[nH]3)=NC2=CNC2CCCCCCC2)cc1,parasite growth,"Dd2, chloroquine-resistant",,,IC50,1140 nM
CCC(C)C1NC(=O)C(Cc2ccccc2)NC(=O)C(CCCCCC(=O)C2CO2)NC(=O)C2CCCCN2C1=O (centres unmarked),,Dd2,"10 x EC50, 24 and 48 h exposure",,time to parasite recrudescence,3 days
O=C1C2=C(Nc3ccccc3SC2c2ccc(F)cc2)c2ccccc21 (racemic),,Dd2 expressing yeast DHOD,together with: 0.5 nM proguanil,reference: transgenic over parental Dd2,fold resistance,0.47
CC(=O)O[C@H]1C[C@@H]2[C@@]3(C)C=CC(=O)C(C)(C)[C@H]3C[C@@H](O)[C@@]2(C)C2=CC[C@@H](c3ccoc3)[C@@]21C,[3H]hypoxanthine incorporation,"W2, chloroquine-resistant",,,IC50,30200 ± 500 nM

# Some of these lines once more:
SMILES,assay,system,conditions,how to read,measurement,value
CC[C@H](C)[C@H](NC(=O)[C@@H](NC(=O)[C@H](Cc1ccc(O)cc1)NC(=O)[C@H](CCCCN)NC(=O)[C@H](CCCCN)NC(=O)[C@H](CC(C)C)NC(=O)[C@H](CC(=O)O)NC(=O)[C@H](Cc1ccc(O)cc1)NC(=O)[C@H](CCC(N)=O)NC(=O)[C@H](CCCCN)NC(=O)[C@@H](NC(=O)[C@H](Cc1ccccc1)NC(=O)[C@H](CCCCN)NC(=O)[C@H](CCCCN)NC(=O)[C@H](Cc1c[nH]c2ccccc12)NC(=O)[C@H](CCCCN)NC(=O)[C@H](CCSC)NC(=O)[C@H](CCCNC(=N)N)NC(=O)[C@H](CCCNC(=N)N)NC(=O)[C@H](CC(N)=O)NC(=O)[C@H](CCC(N)=O)NC(=O)[C@H](Cc1ccccc1)NC(=O)[C@H](Cc1c[nH]c2ccccc12)NC(=O)[C@@H](NC(=O)[C@H](CCCCN)NC(=O)[C@@H](NC(=O)[C@H](CCC(N)=O)NC(=O)[C@@H](N)CCCNC(=N)N)[C@@H](C)CC)[C@@H](C)CC)[C@@H](C)CC)[C@@H](C)CC)C(=O)O,,3D7,"50 µM, 24 h, early trophozoite stage, new ring stage",reference: solvent control,growth inhibition,~50%
